# Experimental data from different studies.
# Parts stem from different laboratories: compare values within a part only. Substitutions count along the parent as printed.

# Series 1
# Target: CCNB3, cyclin fold, Cln2 fusion (human)
# Method: yeast growth competition, sequencing
# Medium: yeast
# Notes: weak parent motif
# Relative to: not given
# Direction: higher = stronger binding
# Parent: ORC1 docking peptide (human); PRARKRLELGNLG
Substitution,normalised enrichment score
PRARARAELGNLG [K5A L7A],0.0544
PRARKRWELGNLG [L7W],0.147
PTARKRLELGNLG [R2T],0.778
PWARKRLELGNLG [R2W],1.01
PRARKLLELGNLG [R6L],0.425
PDARKRLELGNLG [R2D],0.296
PRARKRLELGNLW [G13W],-0.505
PRAVKRLELGNLG [R4V],0.0343
PRARKRLELRNLG [G10R],-0.244
CRARKRLELGNLG [P1C],0.667

# Series 2
# Target: ABI1, truncated, D143A, DHFR fusion (Arabidopsis thaliana)
# Method: DHFR PCA, deep sequencing
# Medium: yeast
# Notes: methotrexate growth selection, single substitutions
# Together with: (+)-ABA 4.8 µM
# Relative to: wild-type fitted maximum
# Direction: higher = stronger binding
# Parent: PYL1, truncated, DHFR fusion (Arabidopsis thaliana); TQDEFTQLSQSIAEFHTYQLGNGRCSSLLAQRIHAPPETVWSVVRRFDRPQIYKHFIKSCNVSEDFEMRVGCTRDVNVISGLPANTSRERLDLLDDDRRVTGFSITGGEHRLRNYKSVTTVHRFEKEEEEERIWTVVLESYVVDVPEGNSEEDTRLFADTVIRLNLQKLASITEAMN; partner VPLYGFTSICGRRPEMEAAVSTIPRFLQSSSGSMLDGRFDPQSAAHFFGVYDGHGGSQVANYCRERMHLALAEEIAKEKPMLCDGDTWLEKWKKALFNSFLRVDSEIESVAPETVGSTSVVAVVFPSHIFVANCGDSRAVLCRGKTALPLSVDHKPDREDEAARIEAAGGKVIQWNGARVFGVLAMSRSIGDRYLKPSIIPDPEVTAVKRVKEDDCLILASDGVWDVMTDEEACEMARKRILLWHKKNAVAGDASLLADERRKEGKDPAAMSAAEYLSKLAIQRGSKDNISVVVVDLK
Substitution,relative binding score [%]
F47P,-16.2
F124P,8.2
R49I,24.2
A170Y,-7.61
K54I,4.11
Q7I,64.6
V76M,17.2

# Series 3
# Target: CRIPT, C-terminal peptide
# Method: DHFR complementation, deep sequencing
# Medium: yeast
# Notes: single substitutions, model-inferred values
# Relative to: wild type
# Direction: higher = weaker binding
# Parent: ERBIN, PDZ domain 1 (human); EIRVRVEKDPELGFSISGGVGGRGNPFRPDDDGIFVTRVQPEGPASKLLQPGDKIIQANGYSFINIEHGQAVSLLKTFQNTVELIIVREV; partner TKNYKQTSV
Substitution,binding free energy change [kcal/mol]
T37N,0.799
Q79T,-0.00141
D53G,0.819
I66F,-0.0134

# Other studies, line by line
Molecule,target,test,test system,setting,scale,quantity,result
"PhoQ, residues 284 288 289 292 302 303 SSLVEF","PhoP, residues 12 14 15 18 19 VQGLL (Escherichia coli, UniProt P23836)","Sort-seq, item: YFP reporter",E. coli,"PhoQ-PhoP variant library, together with: 10 µM Mg2+","relative to: high Mg2+ state, higher = stronger signaling",fold induction,4.33
